Published values from different studies.
Compare with care: the assays were run in different laboratories. Several values in a cell are separate wells, animals, samples, runs or records. ± gives the spread as reported.
GUK1: GUK1 (Homo sapiens, UniProt Q16774)

SMILES	target	assay	system	conditions	scale	measurement	value
C=C1CN(S(=O)(=O)c2ccc(C)cc2)CCCN(Cc2ccccc2)CCCN(S(=O)(=O)c2ccc(C)cc2)C1	Protein transport protein Sec61 subunit alpha isoform 1 (Homo sapiens, UniProt P61619)	reporter gene, Dual-Glo luciferase	HEK293 with CD4 signal peptide-FLuc		reference: mock	FLuc/RLuc ratio	1.9
CCCC[C@H](NC(=O)[C@@H](NC(=O)[C@H](CCCNC(=N)N)NC(=O)CN)[C@@H](C)O)C(=O)N[C@@H](CCC(N)=O)C(=O)N[C@H](C(=O)N[C@@H](C)C(=O)N[C@@H](CCCNC(=N)N)C(=O)N[C@@H](CCCCN)C(=O)N[C@@H](CO)C(=O)N[C@H](C(=O)NCC(=O)NCC(N)=O)[C@@H](C)O)[C@@H](C)O	SETD7 (Homo sapiens, UniProt Q8WTS6)	histone H3 methylation, inhibitor, western blot		100 µM, 30 min, enzyme 500 nM, with: full-length H3, SAM 30 µM	reference: no inhibitor	H3K4me1 level	35 ± 7%
Nc1ncnc2c1ncn2[C@@H]1O[C@H](COP(=O)(O)CP(=O)(O)OP(=O)(O)O)[C@@H](O)[C@H]1O	P2X purinoceptor 1 (P2RX1, Homo sapiens, UniProt P51575, D97A)	calcium influx		1 µM	reference: ionomycin response	calcium influx	78.1% and 92.3% and 88.8% and 59.8%
CC(C)=CCC/C(C)=C/C=C/C(C)=C/C=C/C(C)=C/C=C/C=C(C)/C=C/C=C(C)/C=C/C=C(\C)CCC=C(C)C	Beta-lactoglobulin (LGB, Bos taurus, UniProt P02754)	intrinsic fluorescence		298 K	reference: protein alone	fluorescence decrease	19%
C=C1CN(S(=O)(=O)c2ccc(C)cc2)CCCN(Cc2ccccc2)CCCN(S(=O)(=O)c2ccc(C)cc2)C1	Sortilin (Homo sapiens, UniProt Q99523)	protein down-modulation, flow cytometry	HEK-293T transfected with GFP fusion			maximum down-modulation	> 50%
Nc1ncnc2c1ncn2[C@@H]1O[C@H](COP(=O)(O)OP(=O)(O)NP(=O)(O)O)[C@@H](O)[C@H]1O	Cell cycle histidine kinase CckA, CA domain (Caulobacter vibrioides, UniProt Q9X688)	ITC		without c-di-GMP		ΔH	-7.97 ± 0.407 kJ/mol
CC1CCCN(C(=O)c2cc3ncccn3n2)C1 (stereo not shown)	WD repeat-containing protein 55 (WDR55, Homo sapiens, UniProt Q9H6Y2)	binding, affinity selection mass spectrometry			reference: other proteins in batch	log fold enrichment	-0.161
Cc1cnc(Nc2ccc(C(=O)NC3CCN(C(=O)COCCOCCOCC(=O)N4CCC(NC(=O)c5ccc(Nc6ncc(C)c(Nc7ccc(Cl)c(NS(=O)(=O)C(C)(C)C)c7)n6)cc5F)CC4)CC3)c(F)c2)nc1Nc1ccc(Cl)c(NS(=O)(=O)C(C)(C)C)c1	human BRD4 and BRDT bromodomains	binding, BromoScan			reference: Kd BRD4 over Kd BRDT	selectivity ratio	8 fold
Nc1ncnc2c1ncn2[C@@H]1O[C@H](COP(=O)(O)OP(=O)(O)OP(=O)(O)O)[C@@H](O)[C@H]1O	P2X purinoceptor 7 (P2rx7, Rattus norvegicus, UniProt Q64663)	ion current, agonist, two-electrode voltage clamp	Xenopus laevis oocytes	37 µM	reference: highest concentration response	normalized current	0.41 and 0.54 and 0.63
CC[C@@H]1[C@H](F)C(=O)N[C@@H]1COc1nccc2cc(C(N)=O)c(OC)cc12	PIKFYVE (Homo sapiens, UniProt Q9Y2I7)	ATP probe binding, KiNativ profiling, measured: ATP loop probe site	THP-1 cell lysate	0.01 mM		inhibition	11%
COCCC(=O)N1CCC(Oc2ccccc2)C1 (stereo not shown)	RFWD3 (Homo sapiens, UniProt Q6PCD5)	binding, affinity selection mass spectrometry			reference: other proteins in batch	log fold enrichment	-0.0615
Nc1ncnc2c1ncn2[C@@H]1O[C@H](COP(=O)(O)OP(=O)(O)O)[C@@H](O)[C@H]1O	GUK1	binding, isothermal titration calorimetry		molar ratio 1.955, fitted curve		ΔH	-1.72 kJ/mol
c1cncc(OC[C@H]2CN(CCN3CCc4ccccc43)CCO2)c1	HTR2C (Homo sapiens, UniProt P28335)	radioligand binding		concentration not given, with: [3H]mesulergine		inhibition	24.2%
CN[C@H](CC(=O)O)C(=O)O	uncharacterized protein (Ixodes scapularis, UniProt A0A0N9E2I2)	L-glutamate-like response, two-electrode voltage clamp	Xenopus laevis oocytes	100 µM		activity	inactive
CCc1cnn2c(NCc3ccc[n+]([O-])c3)cc(N3CCCC[C@H]3CCO)nc12	BRD4 (Homo sapiens, UniProt O60885)	19F NMR, measured: tyrosine 65		94 µM	reference: free protein	chemical shift change	0.059 ppm
Cc1ccc(C[C@H](NC(=O)OC(C)(C)C)C(=O)NC/C=C/S(=O)(=O)c2ccccc2)cc1	Cathepsin B (CTSB, Homo sapiens, UniProt P07858)	inhibitor		with: Z-Arg-Arg-pNA		kinact/Ki	161 M⁻¹ s⁻¹
CCOc1ccc(NC(=O)O[C@@H](Cn2nc(C(C)C)cc2C(C)C)C(C)C)cc1	Neuronal acetylcholine receptor; alpha4/beta2, (α4)2(β2)3 stoichiometry (Homo sapiens, UniProt P17787+P43681)	two-electrode voltage clamp	Xenopus oocytes	concentration not given, high-sensitivity stoichiometry, with: ACh 3 µM	reference: ACh alone	maximum response	24.7 ± 0.2 fold

SMILES	target	assay	system	conditions	scale	measurement	value
O=C(CN1CCO[C@H](COc2cccnc2)C1)N1CCc2ccccc21	HTR2A (Homo sapiens, UniProt P28223)	radioligand binding		concentration not given, with: [3H]ketanserin		inhibition	-7%
Nc1nc2c(ncn2[C@@H]2O[C@H](COP(=O)(O)O)[C@@H](O)[C@H]2O)c(=O)[nH]1	GUK1	enzyme activity, NADH-coupled		31.25 µM, with: NaCl 10 mM		reaction velocity	0.0466 µM/s and 0.0377 µM/s and 0.0443 µM/s
O=c1nc(SCc2cc(F)cc(C(F)(F)F)c2)nc(SCc2ccc3sccc3c2)[nH]1	TOP2A (Homo sapiens, UniProt P11388)	DNA cleavage		15.6 µM, replicate 1		linear DNA	0%
Clc1cncc(OC[C@H]2CN(CCN3CCc4ccccc43)CCO2)c1	HTR7 (Homo sapiens, UniProt P34969)	radioligand binding		concentration not given, with: [3H]LSD		inhibition	42.4%
CC1(C)CC2(C)OC(=O)NC2(C)c2ccccc21 (stereo not shown)	Baculoviral IAP repeat-containing protein 3, BIR1 domain (BIRC3, Homo sapiens, UniProt Q13489)	binding, affinity selection mass spectrometry			reference: other proteins in batch	fold enrichment	0.918
O=c1nc(SCc2cc(F)cc(C(F)(F)F)c2)nc(SCc2csc3ccc(Cl)cc23)[nH]1	TOP2B (Homo sapiens, UniProt Q02880)	decatenation		1.95 µM, replicate 2		decatenated DNA	100%
O=C(Nc1cccc2c(=O)cc(-c3nnn[nH]3)oc12)c1ccc(OCCCCc2ccccc2)cc1	LRRC8A/LRRC8C (Homo sapiens, UniProt Q8IWT6+Q8TDW0, L134K/L136K)	whole-cell patch clamp	HCT116 LRRC8-/- transfected	at -100 mV		Hill coefficient	0.96
Oc1ccc(/C=C/c2cc(O)cc(O)c2)cc1	O-methyltransferase (Sorghum bicolor, UniProt A0A1B6PFV1)			with: 5'-methylthioadenosine 1 mM		cooperativity factor	16.8
O=S(=O)(O)C1CCNCC1	SLC6A6 (Homo sapiens, UniProt P31641, Y138A)	binding, microscale thermophoresis		30.5 nM, fitted curve	higher = more binding	fraction bound	0
Nc1ccc2cc3ccc(N)cc3nc2c1	Chymotrypsinogen A, activated (alpha-chymotrypsin) (Bos taurus, UniProt P00766)	isothermal titration calorimetry		25 °C, with: 0.5 M N,N-dimethylglycine		binding Gibbs energy	-23.9 ± 0.1 kJ/mol
CCOc1ccc(C2c3c(oc4ccc(C)cc4c3=O)C(=O)N2CCCN(C)C)cc1OC (stereo not shown)	GHSR (Homo sapiens, UniProt Q92847)	intracellular calcium mobilization	HEK293 cells stably expressing receptor	concentration not given, pure resynthesized compound		activity	inactive
CC(=O)N[C@H](C(=O)N1C[C@H](O)C[C@H]1C(=O)NCc1ccc(-c2scnc2C)cc1)C(C)(C)SCCCCCCNC(=O)C[C@@H]1N=C(c2ccc(Cl)cc2)c2c(sc(C)c2C)-n2c(C)nnc21	Bromodomain-containing protein 4, BD1 (BRD4, Homo sapiens, UniProt O60885)	binding, ITC		25 °C, compound in cell, protein in syringe		ΔH	-77 ± 2.93 kJ/mol
CCN1CCC[C@H]1CNC(=O)c1c(O)c(Cl)cc(Cl)c1OC	G-protein coupled receptor 151 (GPR151, Homo sapiens, UniProt Q8TDV0)	β-arrestin recruitment, TANGO luminescence, measured: GPR151		concentration not given	reference: basal luminescence	log2 fold change	0.52
O=S(=O)(O)SSS(=O)(=O)O	Uncharacterized protein (Pelagibacter ubique, UniProt Q4FKX4)	differential scanning fluorimetry	Candidatus Pelagibacter ubique	in-house screen		thermal shift	14.6 °C
C=CC(=O)N1CCC(COCC(=O)N2CCN(c3nc(-c4cnc(N)nc4C(F)F)nc(N4CCOC[C@@H]4C)n3)CC2)CC1	Ribosomal protein S6 kinase alpha-5, C-terminal kinase domain (RPS6KA5, Homo sapiens, UniProt O75582)	KINOMEscan		1 µM		remaining binding	100%
CC(C)c1noc2ncc(C(=O)c3ccccc3O)cc12	OTOP1 (Homo sapiens, UniProt Q7RTM1)	proton current, potentiator, whole-cell patch-clamp	HEK-293T	10 µM, pH 5.5	reference: current before compound	current potentiation	1.63 fold
CCCCC[C@H](O)/C=C/[C@H]1[C@H](O)CC(=O)[C@@H]1C/C=C\CCCC(=O)O	PTGER1 (Homo sapiens, UniProt P34995, L143A)	IP1 accumulation, agonist	AD293	1 h, EP1 L143A mutant		Emax	38.3 ± 5.81%

A few entries again:
SMILES	target	assay	system	conditions	scale	measurement	value
CCOc1ccc(NC(=O)O[C@@H](Cn2nc(C(C)C)cc2C(C)C)C(C)C)cc1	Neuronal acetylcholine receptor; alpha4/beta2, (α4)2(β2)3 stoichiometry (Homo sapiens, UniProt P17787+P43681)	two-electrode voltage clamp	Xenopus oocytes	concentration not given, high-sensitivity stoichiometry, with: ACh 3 µM	reference: ACh alone	maximum response	24.7 ± 0.2 fold
O=C(CN1CCO[C@H](COc2cccnc2)C1)N1CCc2ccccc21	HTR2A (Homo sapiens, UniProt P28223)	radioligand binding		concentration not given, with: [3H]ketanserin		inhibition	-7%
